Measured values pooled from the literature.
Each line is one published result; not all experiments were run side by side.
Target: Peripheral plasma membrane protein CASK (CASK, Homo sapiens, UniProt O14936)

Cc1ccc(-c2c(/C=C(\C#N)C(=O)NC(C)C)n(CCCO)c3ncnc(N)c23)cc1  remaining binding (cell-free assay, competition with immobilised ligand; 1 µM): 53%
Cc1cnc2nc1Nc1cccc(c1)COC/C=C/COCc1cc(ccc1OCCN1CCOCC1)N2  remaining binding (binding; 0.1 µM): 75%
CNC1C[S+]2CC[S+]3CC[S+](C1)[Ru-4]321([N]=C=S)[n]2c3ccc(OC)cc3c3c4c(c5cc(F)c[n+]1c5c32)C(=O)NC4=O (stereo not drawn)  remaining binding (KinomeScan; 0.1 µM; relative to: untreated): 94%
CCN1CCN(Cc2ccc(C(=O)Nc3ccc(C)c(NCc4cnc5[nH]ccc5c4OC)c3)cc2C(F)(F)F)CC1  remaining binding (binding, competition with immobilised ligand; 1 µM): 72%
C=CC(=O)N1Cc2nc(-c3cc(-c4cc(Cl)cnc4Cl)c(F)cc3F)n(-c3ccncn3)c2C1  inhibition (cell-free assay; 1 µM): -1.3%
Nc1ncc2c(n1)-c1c([nH]c3ccc(C4=CCOCC4)cc13)CCC2  remaining binding (binding, competition with immobilised ligand; 1 µM): 93%
C=CC(=O)N1CCc2ccc(-n3c(=O)ccc4cnc5ccc(-c6cnn(C)c6)cc5c43)cc21  remaining binding (KINOMEscan; 1 µM; relative to: DMSO control): 89%
CN1CCN(Cc2ccc(-c3ccc(CO[C@H]4CCC[C@@H]4NC(=O)c4cc(-c5cnn(C)c5)cnc4N)cc3)cc2)CC1  inhibition (enzyme activity, inhibitor; 0.1 µM): -13%
C=CC(=O)N1CCCC(n2c(=O)c3ncccc3n(Cc3ccc(Oc4ccccc4)cc3)c2=O)C1 (stereo not drawn)  remaining binding (cell-free assay, competition with immobilised ligand; 1 µM): 56%
CC(C)=CC1OC(C)(C)C2C=C3C(=O)C(Cl)=CC(O)C3C3C(O)C4OC4C(=O)C132 (stereo not drawn)  remaining binding (cell-free assay, competition with immobilised ligand; 10 µM): 90%
COc1cc(Nc2nccc(-c3cnn4nc(OC)ccc34)n2)cc(C(F)(F)F)c1  remaining binding (binding, competition with immobilised ligand; 1 µM): 94%
C[C@H]1CN(C(=O)c2cn(-c3ccnc(N)n3)c3cc(C#CC4(O)CCCCC4)ccc23)CCN1  inhibition (cell-free assay, TR-FRET; 1 µM): 1%
COc1c(Cl)cccc1Nc1c(-c2ccncc2C#C[C@@]2(C)CCCN2C(=O)/C=C/CN(C)C)[nH]c2c1C(=O)NCC2  remaining binding (binding, competition with immobilised ligand; 3 µM): 82%
COc1cc(Nc2nc(C)cc(-c3cnn4nc(OC)ccc34)n2)cc(C(F)(F)F)c1  remaining activity (inhibitor; 1 µM; relative to: control): 65%
CNC(=O)C1CCN(c2cc(C)c(F)cc2NC(=O)c2ccc(-c3cc(O)ccc3C)c(C)c2)CC1  remaining binding (binding, competition with immobilised ligand; 1 µM): 98%

Repeated from above:
C=CC(=O)N1CCCC(n2c(=O)c3ncccc3n(Cc3ccc(Oc4ccccc4)cc3)c2=O)C1 (stereo not drawn)  remaining binding (cell-free assay, competition with immobilised ligand; 1 µM): 56%
